Experimental data of several laboratories.
A part holds a random share of what one study measured.
Chain of UniProt Q9P1W9 (whole entry, looked up): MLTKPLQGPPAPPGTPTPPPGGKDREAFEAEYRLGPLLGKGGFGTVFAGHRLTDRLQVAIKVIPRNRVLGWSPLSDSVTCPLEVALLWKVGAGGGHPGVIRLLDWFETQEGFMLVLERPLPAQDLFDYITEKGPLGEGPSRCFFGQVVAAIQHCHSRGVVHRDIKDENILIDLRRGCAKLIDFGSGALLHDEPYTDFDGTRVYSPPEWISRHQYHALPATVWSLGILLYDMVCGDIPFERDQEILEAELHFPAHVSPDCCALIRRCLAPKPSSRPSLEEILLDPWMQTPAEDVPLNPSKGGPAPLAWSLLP
Chain of UniProt Q8IY84 (whole entry, looked up): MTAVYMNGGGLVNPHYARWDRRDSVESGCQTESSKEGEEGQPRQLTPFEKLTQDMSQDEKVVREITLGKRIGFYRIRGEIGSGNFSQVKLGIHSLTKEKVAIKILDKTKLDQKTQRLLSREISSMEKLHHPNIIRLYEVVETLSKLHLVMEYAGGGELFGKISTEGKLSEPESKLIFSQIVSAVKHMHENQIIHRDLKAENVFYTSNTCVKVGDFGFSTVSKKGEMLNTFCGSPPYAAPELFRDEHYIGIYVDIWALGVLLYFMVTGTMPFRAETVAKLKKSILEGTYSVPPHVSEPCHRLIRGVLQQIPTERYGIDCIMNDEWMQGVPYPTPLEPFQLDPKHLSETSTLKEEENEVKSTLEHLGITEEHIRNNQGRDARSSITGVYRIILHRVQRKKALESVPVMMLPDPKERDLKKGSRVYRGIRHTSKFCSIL
Chain of UniProt P06241 (whole entry, looked up): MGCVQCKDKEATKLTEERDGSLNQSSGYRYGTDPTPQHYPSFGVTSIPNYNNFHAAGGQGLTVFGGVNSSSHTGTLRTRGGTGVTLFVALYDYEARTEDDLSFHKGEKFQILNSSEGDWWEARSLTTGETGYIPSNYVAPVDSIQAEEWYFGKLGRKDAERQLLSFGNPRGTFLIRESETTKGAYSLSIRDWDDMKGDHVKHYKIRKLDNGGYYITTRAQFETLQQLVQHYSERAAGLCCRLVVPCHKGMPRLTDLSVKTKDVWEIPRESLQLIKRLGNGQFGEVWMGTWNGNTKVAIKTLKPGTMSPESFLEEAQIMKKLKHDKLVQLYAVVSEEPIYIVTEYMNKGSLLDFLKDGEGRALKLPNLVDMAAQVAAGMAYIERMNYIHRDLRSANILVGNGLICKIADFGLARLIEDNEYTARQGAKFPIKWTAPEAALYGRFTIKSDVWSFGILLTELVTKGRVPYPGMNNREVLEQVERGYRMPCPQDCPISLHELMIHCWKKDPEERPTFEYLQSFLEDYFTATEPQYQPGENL
Chain of UniProt Q8N568 (whole entry, looked up): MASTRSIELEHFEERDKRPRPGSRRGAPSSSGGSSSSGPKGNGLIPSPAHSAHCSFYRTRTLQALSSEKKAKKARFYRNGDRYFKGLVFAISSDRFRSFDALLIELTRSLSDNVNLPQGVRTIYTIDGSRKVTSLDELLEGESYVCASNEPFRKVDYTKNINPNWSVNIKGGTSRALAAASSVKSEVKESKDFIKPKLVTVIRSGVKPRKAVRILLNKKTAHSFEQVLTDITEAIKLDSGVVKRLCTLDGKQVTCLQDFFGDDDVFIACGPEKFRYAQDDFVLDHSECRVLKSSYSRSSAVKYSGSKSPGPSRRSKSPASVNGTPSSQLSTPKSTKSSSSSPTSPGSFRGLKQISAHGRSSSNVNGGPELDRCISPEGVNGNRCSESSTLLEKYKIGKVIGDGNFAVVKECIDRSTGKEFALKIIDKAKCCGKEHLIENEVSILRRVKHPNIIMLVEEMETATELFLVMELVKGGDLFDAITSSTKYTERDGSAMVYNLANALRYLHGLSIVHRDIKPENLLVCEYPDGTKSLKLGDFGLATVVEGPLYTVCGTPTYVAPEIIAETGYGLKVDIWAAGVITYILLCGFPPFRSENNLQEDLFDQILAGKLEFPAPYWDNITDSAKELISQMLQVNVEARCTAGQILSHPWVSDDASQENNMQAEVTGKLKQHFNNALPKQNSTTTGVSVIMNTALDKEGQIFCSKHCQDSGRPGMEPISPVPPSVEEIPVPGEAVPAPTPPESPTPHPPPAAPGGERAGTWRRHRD

Sample 1
Target: DNA polymerase theta, ATPase domain (POLQ, Homo sapiens, UniProt O75417)
Chain of UniProt O75417 (whole entry, unmodified, looked up): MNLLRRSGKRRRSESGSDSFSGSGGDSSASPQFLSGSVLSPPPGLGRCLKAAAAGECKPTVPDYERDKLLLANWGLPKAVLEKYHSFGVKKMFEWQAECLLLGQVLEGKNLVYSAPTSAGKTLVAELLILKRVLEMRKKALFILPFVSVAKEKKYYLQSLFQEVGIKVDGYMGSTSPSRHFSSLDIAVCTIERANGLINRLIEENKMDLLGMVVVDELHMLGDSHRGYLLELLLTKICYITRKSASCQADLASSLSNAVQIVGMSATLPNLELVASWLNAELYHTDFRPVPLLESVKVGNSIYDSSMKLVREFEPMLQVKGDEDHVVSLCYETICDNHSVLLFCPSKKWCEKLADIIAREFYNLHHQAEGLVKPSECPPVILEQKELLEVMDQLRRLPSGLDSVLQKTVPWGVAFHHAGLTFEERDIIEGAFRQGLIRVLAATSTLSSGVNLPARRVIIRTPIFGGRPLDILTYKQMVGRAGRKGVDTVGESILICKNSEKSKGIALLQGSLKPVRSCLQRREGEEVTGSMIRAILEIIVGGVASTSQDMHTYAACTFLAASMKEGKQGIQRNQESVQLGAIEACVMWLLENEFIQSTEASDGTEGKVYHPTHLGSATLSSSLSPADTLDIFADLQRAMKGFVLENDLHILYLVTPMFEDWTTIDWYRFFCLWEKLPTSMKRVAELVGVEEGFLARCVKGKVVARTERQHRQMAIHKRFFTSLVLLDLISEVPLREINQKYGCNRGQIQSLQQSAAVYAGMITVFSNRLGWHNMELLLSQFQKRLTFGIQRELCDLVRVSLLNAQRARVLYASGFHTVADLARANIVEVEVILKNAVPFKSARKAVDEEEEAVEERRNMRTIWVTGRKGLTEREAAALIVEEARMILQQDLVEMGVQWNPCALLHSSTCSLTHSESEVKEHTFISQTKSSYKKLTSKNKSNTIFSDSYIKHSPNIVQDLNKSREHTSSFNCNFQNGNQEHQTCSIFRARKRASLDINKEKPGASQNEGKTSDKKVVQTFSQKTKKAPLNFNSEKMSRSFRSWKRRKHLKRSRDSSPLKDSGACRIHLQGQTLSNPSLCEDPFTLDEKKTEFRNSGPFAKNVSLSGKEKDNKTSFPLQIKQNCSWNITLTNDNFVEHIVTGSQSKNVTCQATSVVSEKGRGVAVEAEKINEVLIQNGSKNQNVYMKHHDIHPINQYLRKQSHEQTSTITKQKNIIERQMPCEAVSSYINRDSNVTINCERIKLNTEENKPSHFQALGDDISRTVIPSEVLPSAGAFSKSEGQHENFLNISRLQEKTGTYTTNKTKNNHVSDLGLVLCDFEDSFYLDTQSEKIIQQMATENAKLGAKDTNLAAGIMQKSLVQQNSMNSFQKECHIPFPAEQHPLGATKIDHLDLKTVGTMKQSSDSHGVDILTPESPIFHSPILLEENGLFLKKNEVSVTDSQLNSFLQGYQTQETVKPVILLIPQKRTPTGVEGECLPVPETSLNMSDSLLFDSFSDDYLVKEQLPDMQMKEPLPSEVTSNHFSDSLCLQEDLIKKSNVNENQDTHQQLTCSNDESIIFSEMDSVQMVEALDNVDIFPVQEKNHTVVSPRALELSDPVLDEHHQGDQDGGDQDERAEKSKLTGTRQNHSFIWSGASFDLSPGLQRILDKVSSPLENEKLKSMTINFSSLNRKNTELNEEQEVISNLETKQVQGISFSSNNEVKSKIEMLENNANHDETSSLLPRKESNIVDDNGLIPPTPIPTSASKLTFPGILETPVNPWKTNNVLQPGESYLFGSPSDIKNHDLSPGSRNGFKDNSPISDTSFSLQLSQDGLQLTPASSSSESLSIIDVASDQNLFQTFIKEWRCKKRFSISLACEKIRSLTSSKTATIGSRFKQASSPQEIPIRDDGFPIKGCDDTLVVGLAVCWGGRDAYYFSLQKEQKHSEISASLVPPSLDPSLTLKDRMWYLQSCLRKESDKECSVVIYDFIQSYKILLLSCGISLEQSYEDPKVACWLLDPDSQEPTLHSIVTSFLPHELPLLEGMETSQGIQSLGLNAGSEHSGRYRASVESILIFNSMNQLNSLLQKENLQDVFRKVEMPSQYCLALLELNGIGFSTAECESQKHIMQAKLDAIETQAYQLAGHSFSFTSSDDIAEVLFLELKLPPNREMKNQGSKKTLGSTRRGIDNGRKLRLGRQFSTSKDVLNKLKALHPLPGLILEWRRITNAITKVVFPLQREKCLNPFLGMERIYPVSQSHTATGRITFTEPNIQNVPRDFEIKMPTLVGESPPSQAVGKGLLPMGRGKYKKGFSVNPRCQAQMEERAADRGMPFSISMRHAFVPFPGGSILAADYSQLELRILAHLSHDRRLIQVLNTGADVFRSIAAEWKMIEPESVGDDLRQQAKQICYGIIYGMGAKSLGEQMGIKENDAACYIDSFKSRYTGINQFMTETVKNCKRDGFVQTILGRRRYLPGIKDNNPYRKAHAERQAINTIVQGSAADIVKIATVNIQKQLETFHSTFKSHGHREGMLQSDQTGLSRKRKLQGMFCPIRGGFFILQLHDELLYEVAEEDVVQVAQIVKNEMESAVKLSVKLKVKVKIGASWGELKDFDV
Read-out: enzyme activity
Mode: inhibitor
Tested at: 77 µM
Reference: untreated
| Compound | remaining activity [%] |
| --- | --- |
| O[C@@](CCN1CCCCC1)(c1ccccc1)[C@H]1C[C@@H]2C=C[C@H]1C2 | 95.1 |
| O=C1c2ccccc2-c2n[nH]c3cccc1c23 | 73.1 |
| CC(C)(C)NS(=O)(=O)c1cncc(-c2cc(F)c3nc(N)nn3c2)c1 | 103 |
| CC(C)N(CC[C@H](c1ccccc1)c1cc(CO)ccc1O)C(C)C | 101 |
| COc1cc2ncnc(Nc3ccc(O)c(Br)c3)c2cc1OC | 104 |
| Cn1cc(-c2[nH]c3cc(NC(=O)[C@H](N)C4CCCCC4)cc4c3c2C=NNC4=O)cn1 | 103 |
| CC(C[N+](C)(C)C)OC(N)=O (stereo not shown) | 102 |

Sample 2
SMILES: C=CC(=O)N1CCC([C@@H]2CCNc3c(C(N)=O)c(-c4ccc(Oc5ccccc5)cc4)nn32)CC1
Mode: inhibitor
Tested at: 1 µM
| target | assay | inhibition |
| --- | --- | --- |
| Myosin light chain kinase family member 4 (MYLK4, Homo sapiens, UniProt Q86YV6) |  | 3% |
| Serine/threonine-protein kinase PLK2 (PLK2, Homo sapiens, UniProt Q9NYY3) | enzyme activity | 8% |
| Dual specificity protein kinase TTK (TTK, Homo sapiens, UniProt P33981) | enzyme activity | 47% |
| eIF-2-alpha kinase GCN2 (EIF2AK4, Homo sapiens, UniProt Q9P2K8, S808G) |  | 10% |
| Tyrosine-protein kinase Fyn (FYN, Homo sapiens, UniProt P06241) | enzyme activity | 53% |
| Phosphatidylinositol 5-phosphate 4-kinase type-2 gamma (PIP4K2C, Homo sapiens, UniProt Q8TBX8) |  | 0% |
| AP2-associated protein kinase 1 (AAK1, Homo sapiens, UniProt Q2M2I8) | enzyme activity | 1% |

Sample 3
Target: Serine/threonine-protein kinase pim-1 (PIM1, Homo sapiens, UniProt P11309)
Chain of UniProt P11309 (whole entry, looked up): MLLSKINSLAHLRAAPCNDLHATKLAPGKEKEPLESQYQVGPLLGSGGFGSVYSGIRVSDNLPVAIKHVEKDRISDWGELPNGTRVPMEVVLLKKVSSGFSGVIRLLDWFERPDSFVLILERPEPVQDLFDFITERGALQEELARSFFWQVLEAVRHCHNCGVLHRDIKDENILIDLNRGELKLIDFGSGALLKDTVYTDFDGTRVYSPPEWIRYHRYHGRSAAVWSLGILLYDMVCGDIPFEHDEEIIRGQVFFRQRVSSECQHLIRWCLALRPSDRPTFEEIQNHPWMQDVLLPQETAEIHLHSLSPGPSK
Read-out: enzyme activity
Mode: inhibitor
Tested at: 0.5 µM
Reference: control
| SMILES | remaining activity [%] |
| --- | --- |
| COc1cc2c(Nc3ccc(Br)cc3F)ncnc2cc1OCC1CCN(C)CC1 | 95 |
| C[C@@H](N)[C@H]1CC[C@H](C(=O)Nc2ccncc2)CC1 | 96.9 |
| N#C/C(=C(/N)SC1C=CC=CC1)c1cccc(C(O)c2ccncc2)c1 (stereo not shown) | 96.7 |
| O=C(c1ccccc1)c1ccc(N2CCOCC2)cc1O | 101 |
| O=C1NC(=O)/C(=C/c2ccc3c(c2)OC(F)(F)O3)S1 | 35.9 |
| O=C1c2ccccc2-c2nc3nnnn3nc21 | 94.1 |

Sample 4
SMILES: Cn1cc(Cl)c2c(Oc3c(F)cc(Nc4cc(Cl)nc(N)n4)cc3F)ccnc21
Read-out: cell-free assay
Method: competition with immobilised ligand
Tested at: 0.1 µM
| target | remaining binding |
| --- | --- |
| Serine/threonine-protein kinase pim-2 (PIM2, Homo sapiens, UniProt Q9P1W9) | 88% |
| ALK tyrosine kinase receptor (ALK, Homo sapiens, UniProt Q9UM73) | 89% |
| Dual specificity tyrosine-phosphorylation-regulated kinase 2 (DYRK2, Homo sapiens, UniProt Q92630) | 100% |
| Serine/threonine-protein kinase TAO1 (TAOK1, Homo sapiens, UniProt Q7L7X3) | 97% |
| Phosphatidylinositol 4-phosphate 5-kinase type-1 alpha (PIP5K1A, Homo sapiens, UniProt Q99755) | 70% |
| Serine/threonine-protein kinase DCLK2 (DCLK2, Homo sapiens, UniProt Q8N568) | 100% |
| Mitogen-activated protein kinase 14 (MAPK14, Homo sapiens, UniProt Q16539) | 100% |
| Serine/threonine-protein kinase LATS2 (LATS2, Homo sapiens, UniProt Q9NRM7) | 91% |
| Serine/threonine-protein kinase NIM1 (NIM1K, Homo sapiens, UniProt Q8IY84) | 93% |
| Dual specificity mitogen-activated protein kinase kinase 5 (MAP2K5, Homo sapiens, UniProt Q13163) | 100% |
| Macrophage-stimulating protein receptor (MST1R, Homo sapiens, UniProt Q04912) | 87% |
| SRSF protein kinase 1 (SRPK1, Homo sapiens, UniProt Q96SB4) | 85% |
| Rho-associated protein kinase 1 (ROCK1, Homo sapiens, UniProt Q13464) | 76% |
| Mitogen-activated protein kinase kinase kinase 7 (MAP3K7, Homo sapiens, UniProt O43318) | 100% |

Excerpt of the above (sample 1):
| Compound | remaining activity [%] |
| --- | --- |
| CC(C)(C)NS(=O)(=O)c1cncc(-c2cc(F)c3nc(N)nn3c2)c1 | 103 |
| CC(C[N+](C)(C)C)OC(N)=O (stereo not shown) | 102 |
| Cn1cc(-c2[nH]c3cc(NC(=O)[C@H](N)C4CCCCC4)cc4c3c2C=NNC4=O)cn1 | 103 |
